# Assay results of several laboratories.
# Each numbered part is a random draw from the data of one study; scales do not carry over between parts.

# Block 1
# Target: Fragile X messenger ribonucleoprotein 1, C-terminal low-complexity region (Fmr1, Mus musculus, UniProt P35922)
# Method: RNA Bind-n-Seq
# Molecule type: RNA
# Medium: in vitro
# Tested at: 200 nM
# Notes: whole 134-nt RNA, ends assumed
# Together with: 150 mM LiCl
# Reference: input library
# Reading: higher = stronger binding
# All molecules: 7-deaza-guanosine replaces G
Strand,log2 enrichment
GGGAGUUCUACAGUCCGACGAUCCCUGUGCUACACAUCGUAUGUACCGAAUCGGGGUUUUUGGGGUUUGGGGUUUUUUUGGGGAAAGUAUUAUGUUACGCCGUUCGGAUCUGCUGGAAUUCUCGGGUGUCAAGG,-0.726
GGGAGUUCUACAGUCCGACGAUCCGGCCCUGGUGGCAUGCGGGGAGGAAGAGGUGGCCUCAUGGAUCGUGGUGGUCCCGGUGGAAUGUUCAGAGGUGGCCGUGGUGGAGACAGUGGAAUUCUCGGGUGUCAAGG,-0.151
GGGAGUUCUACAGUCCGACGAUCAAGUCCUGUGCUACACAUCGUAUGUACCGAAUCGGGGCCCCGGGGCCCCGGCCCCGGAAAGUAUUAUGUUACGCCGUUCGGAUCUGCACUUGGAAUUCUCGGGUGUCAAGG,-2.35
GGGAGUUCUACAGUCCGACGAUCACCAUGCAGGUGGGCAUCUUUGGGAAGUGGGGCAAGGGGGGGAUAGGGAAAAGGGUAACACUUUGGGAACAGGUGGUCCCAGGUCGUUUCUGGAAUUCUCGGGUGUCAAGG,0.833

# Block 2
# Target: Histone acetyltransferase KAT6A, winged helix 1, GST fusion (KAT6A, Homo sapiens, UniProt Q92794, residues 1-85)
# Method: protein binding microarray
# Molecule type: double-stranded DNA, one strand shown
# Medium: in vitro
# Tested at: not given
# Notes: 8-mer, flanks averaged, mean of 2 arrays, mostly near background
# Reference: not given
# Reading: higher = stronger binding
# Construct (chain): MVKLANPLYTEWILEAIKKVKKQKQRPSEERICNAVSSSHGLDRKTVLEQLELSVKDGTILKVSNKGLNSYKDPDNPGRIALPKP
Strand,E-score
CGTAAATA,0.11
AGGACTGC,-0.173
CTGCACTC,-0.136
ATTAGGCC,-0.0458
ACTCAAAG,-0.138

# Block 3
# Target: Protein max, full length (MAX, Homo sapiens, UniProt P61244-2, residues 1-151)
# Method: protein-binding microarray
# Molecule type: double-stranded DNA, one strand shown
# Medium: in vitro
# Tested at: not given
# Notes: k-mer, scored over probes, only values ≥0.25
# Reading: higher = stronger binding
Strand,E-score
CACCCCAC,0.255
ATGTGCCG,0.337
ATCACACG,0.369
CCGCGCGC,0.298
GCATGGCA,0.412
CCACGCTA,0.369
AACATGGG,0.292
CATACACG,0.392

# Other studies, line by line
Molecule,target,test,system,setting,how to read,quantity,result
"PhoQ, residues 284 288 289 292 302 303 TLSLKA","PhoP, residues 12 14 15 18 19 NHFIF (Escherichia coli, UniProt P23836)","Sort-seq, item: YFP reporter",E. coli,"PhoQ-PhoP variant library, together with: 10 µM Mg2+","reference: high Mg2+ state, higher = stronger signaling",fold induction,1.09

# Repeated from above (block 1):
Strand,log2 enrichment
GGGAGUUCUACAGUCCGACGAUCAAGUCCUGUGCUACACAUCGUAUGUACCGAAUCGGGGCCCCGGGGCCCCGGCCCCGGAAAGUAUUAUGUUACGCCGUUCGGAUCUGCACUUGGAAUUCUCGGGUGUCAAGG,-2.35
